Measured values pooled from the literature.
Compare with care: the assays were run in different laboratories. Values joined by “and” are separate records of one study, mostly repeats; a detail may differ. ± gives the spread as reported.

| SMILES | test | test system | setting | scale | endpoint | result |
| --- | --- | --- | --- | --- | --- | --- |
| C[C@@H](O)CCOC(=O)C[C@@H](C)O |  | human | oral drink, dose not given, 60 min post dose, median, all participants |  | plasma NEFA | 0.2 mM |
| O=C1CCc2ccc(OCCCCN3CCN(c4cccc(Cl)c4Cl)CC3)cc2N1 |  | patients CYP2D6 IM | 6 months |  | stopping or switching | 42% |
| c1ccc(-c2n[nH]cc2-c2ccnc3ccccc23)nc1 | kinase binding, competitor, MIB/MS competition, item: TPK2 | Candida albicans cell lysate | 10 µM | baseline: DMSO | log2 fold change | 1.64 |
| COCCOc1cnc2ccn([C@H](C)c3nnc4c(F)cc(-c5cnn(C)c5)cn34)c(=O)c2c1 |  | patients with advanced solid tumours, partial responders | dose not given, RECIST response, median |  | time to partial response | 119 days |
| C[C@H](Oc1ccc(Br)cc1-c1ccon1)C(=O)O | muscle velocity recovery cycles | human, tibialis anterior muscle | 400 mg once daily, multiple doses, frequency ramp, last response at 15 Hz | baseline: placebo | latency change | -1.27% |
| C[C@H]1C[C@H]2CSC(N)=N[C@@]2(c2nc(NC(=O)c3ccc(OC(F)F)cn3)cs2)CO1 | item: Aβ1-40 | healthy adults, plasma | 275 mg once daily, day 7 | baseline: placebo | percent change from baseline | -87.1% |
| N#Cc1ccc2c(c1)[C@H]1CCCN(C(=O)c3ccc4[nH]cnc4c3)[C@H]1C2 |  | T2DM patients with overweight or obesity, urine | oral, 360 mg, day 14, 0-24 h, multiple dosing, adjusted geometric mean | baseline: baseline day -1, -24-0 h | total urinary corticosteroid excretion | 221% |
| OC[C@H]1O[C@@H](c2ccc(F)c(Cc3cc4ccccc4s3)c2)[C@H](O)[C@@H](O)[C@@H]1O | continuous glucose monitoring | Japanese type 1 diabetes patients | 25 mg/day, day 14 | baseline: baseline | time glucose at most 70 mg/dL | 3.65 ± 7.29 % change |
| COc1cc(F)c([C@@H]2CNC(=O)[C@H]2NC(=O)Nc2ccccc2)c(F)c1 |  | rat, myocardial infarction | 1 mg/kg, 1008 h, 6 weeks after occlusion |  | cardiac output | 37 ± 9 mL/min |
| COc1ccc(C2=N[C@@H](c3ccc(Cl)cc3)[C@@H](c3ccc(Cl)cc3)N2C(=O)N2CCNC(=O)C2)c(OC(C)C)c1 | echocardiography | Dmd C3333Y mouse | dose not given |  | ejection fraction | 46.2% and 51.5% and 50.2% and 53.3% and 49.2% |
| COc1nnc2ccc(N3CCC(c4ccc(OCCN5CCN(C)C(=O)[C@H]5C)cc4)CC3)nn12 |  | patients | 15 mg twice daily |  | time HEXIM1 above threshold | 8.38 h |
| NC(=O)c1cnc2[nH]ccc2c1N[C@@H]1[C@@H]2CC3C[C@H]1C[C@@](O)(C3)C2 | flow cytometry | Japanese healthy men, blood | oral, 30 mg twice daily, 72 h after day 7 dose | baseline: baseline | CD4+ effector memory change | 0.03% |
| CN(C(=O)n1cnc(-c2ccc[n+]([O-])c2)c1)C1CCCCC1 | item: LEA | human, plasma | 2.5 mg once daily, day 10 |  | AUC(0-tau) | 130 ng·h/mL |
| Cc1n[nH]c2ccc(-c3cc(OC[C@@H](N)Cc4ccccc4)cnc3-c3ccoc3)cc12 | kinase binding, competitor, MIB/MS competition, item: SHA3 | Candida albicans cell lysate | 1 µM | baseline: DMSO | log2 fold change | -0.569 |
| C[C@H]1O[C@@H](O[C@H]2CC[C@@]3(C)[C@@H](CC[C@]4(C)[C@@H]3C=C[C@]35OC[C@@]6(CCC(C)(C)C[C@H]63)[C@@H](O)C[C@]54C)[C@]2(C)CO)[C@H](O)[C@@H](O[C@@H]2O[C@H](CO)[C@@H](O)[C@H](O)[C@H]2O)[C@H]1O | Western blot, item: PGC-1α | mice, normal control diet, liver | dose not given, high dose, unit not given | baseline: β-actin | protein level | 0.802 and 0.961 and 1.47 |
| CC(c1cc2ccccc2s1)N(O)C(N)=O (stereo not drawn) |  | human blood | 3 µM, added: A23187 |  | 4-HDHA level | 34 ± 6 pg/mL |
| CC(=O)Oc1cc2c(s1)CCN(C(C(=O)C1CC1)c1ccccc1F)C2 (stereo not drawn) | platelet aggregation, light transmittance aggregometry | human, platelet-rich plasma | 30 min, IPA above 80 %, added: TRAP 5 µM | baseline: patients | patients with IPA above threshold | 0% |
| [Cl-].[Cl-].[Pt+2].[Ru+2].c1ccc(-c2nccnc2-c2ccccn2)nc1.c1cnc2c(c1)ccc1cccnc12.c1cnc2c(c1)ccc1cccnc12 | chloride substitution, UV-vis kinetics | aqueous buffer | concentration not given, pH 7.2, first substitution step, added: thiourea |  | negative activation entropy | 155 ± 6 J/(mol·K) |

For quick reference, copied from above:
| SMILES | test | test system | setting | scale | endpoint | result |
| --- | --- | --- | --- | --- | --- | --- |
| C[C@H]1C[C@H]2CSC(N)=N[C@@]2(c2nc(NC(=O)c3ccc(OC(F)F)cn3)cs2)CO1 | item: Aβ1-40 | healthy adults, plasma | 275 mg once daily, day 7 | baseline: placebo | percent change from baseline | -87.1% |
| N#Cc1ccc2c(c1)[C@H]1CCCN(C(=O)c3ccc4[nH]cnc4c3)[C@H]1C2 |  | T2DM patients with overweight or obesity, urine | oral, 360 mg, day 14, 0-24 h, multiple dosing, adjusted geometric mean | baseline: baseline day -1, -24-0 h | total urinary corticosteroid excretion | 221% |
| OC[C@H]1O[C@@H](c2ccc(F)c(Cc3cc4ccccc4s3)c2)[C@H](O)[C@@H](O)[C@@H]1O | continuous glucose monitoring | Japanese type 1 diabetes patients | 25 mg/day, day 14 | baseline: baseline | time glucose at most 70 mg/dL | 3.65 ± 7.29 % change |
